{"data": "Experimental data pooled from the literature", "note": "Lines come from different studies, so protocols differ. Numbers after ± are the reported error."}
{"Compound": "CC(C)NC[C@@H](C(=O)N1CCN(c2ncnc3c2[C@H](C)C[C@H]3O)CC1)c1ccc(Cl)cc1", "test system": "human, Mild hepatic function, plasma", "conditions": "oral, 100 mg single dose, NCI classification, geometric mean", "Cmax": "63.3 ng/mL"}
{"Compound": "CC(C)=CCC[C@](C)(O[C@@H]1O[C@H](CO)[C@@H](O)[C@H](O)[C@H]1O)[C@H]1CC[C@]2(C)[C@@H]1[C@H](O)C[C@@H]1[C@@]3(C)CC[C@H](O[C@@H]4O[C@H](CO)[C@@H](O)[C@H](O)[C@H]4O[C@@H]4O[C@H](CO)[C@@H](O)[C@H](O)[C@H]4O)C(C)(C)[C@@H]3CC[C@]12C", "test system": "Sprague-Dawley rat, plasma", "conditions": "oral, 200 mg/kg ginsenoside Rb1", "Cmax": "72.4 ± 31.6 ng/mL"}
{"Compound": "O=c1[nH]c(=O)c(Cc2cccc(C(F)(F)F)c2)c([C@H]2CC[C@H](c3ccccc3)CC2)[nH]1", "test system": "human, plasma", "conditions": "oral, 900 mg once daily, day 14, geometric mean", "Cmax": "935 ng/mL"}
{"Compound": "CCCC[C@H](NC(C)=O)C(=O)N[C@H]1CCC(=O)NC[C@@H](C(=O)N[C@@H](Cc2c[nH]c3ccccc23)C(N)=O)NC(=O)[C@H](CCCNC(=N)N)NC(=O)[C@@H](Cc2ccccc2)NC(=O)[C@H](Cc2c[nH]cn2)NC1=O", "test system": "beagle dog, male, plasma", "conditions": "subcutaneous, 40.0 mg/kg daily, day 1", "Cmax": "633 ng/mL"}
{"Compound": "CS(=O)(=O)c1ccc(-c2cnc(N)c(-c3ccc(C(F)(F)F)nc3)c2)cc1", "test system": "pregnant female Sprague-Dawley rat, plasma", "conditions": "oral, 3 mg/kg/day, gestation day 6", "Cmax": "626 ng/mL"}
{"Compound": "C=CC(N)CCC(=O)O (centres unmarked)", "test system": "male Sprague-Dawley rat, plasma", "conditions": "oral, 1.0 mg/kg, formulation 2, together with: infant formula 1500 mg/kg", "Cmax": "965 ± 64 ng/mL"}
{"Compound": "Cc1cc(Nc2cc3ncccc3c(N[C@@H]3C[C@H]4CC[C@@H](C3)N4CCC#N)n2)n[nH]1", "test system": "beagle dog, male, plasma", "conditions": "oral, 30 mg/kg/day, last day of 39 weeks", "Cmax": "70.3 ng/mL"}
{"Compound": "CC1=C2C[C@H]3[C@@H](CC[C@@H]4C[C@H](NS(C)(=O)=O)CC[C@@]43C)[C@@H]2CC[C@@]2(C1)O[C@@H]1C[C@H](C)CN[C@H]1[C@H]2C", "test system": "patients, plasma", "conditions": "oral, 200 mg single, day -7, cycle 1", "Cmax": "123 ng/mL"}
{"Compound": "O=C(CCCCCCC(=O)Nc1ccccc1)NO", "test system": "patients, serum", "conditions": "oral, 1000 mg, cycle 1 day 2, together with: flavopiridol 30+30 mg/m2", "Cmax": "12.7 µM"}
{"Compound": "CO[C@H]1C[C@@H]2CC[C@@H](C)[C@@](O)(O2)C(=O)C(=O)N2CCCC[C@H]2C(=O)O[C@H]([C@H](C)C[C@@H]2CC[C@@H](O)[C@H](OC)C2)CC(=O)[C@H](C)/C=C(\\C)[C@@H](O)[C@@H](OC)C(=O)[C@H](C)C[C@H](C)/C=C/C=C/C=C/1C", "test system": "human, whole blood", "conditions": "oral, 20 mg, together with: grapefruit juice", "Cmax": "105 ng/mL"}
{"Compound": "CCN1CCN(c2ccc(Nc3cc(N(C)C(=O)Nc4c(Cl)c(OC)cc(OC)c4Cl)ncn3)cc2)CC1", "assay": "LC-MS/MS", "test system": "juvenile female Crl:WI(Han) rats, plasma", "conditions": "oral gavage, 0.1 mg/kg/day, postnatal day 17", "Cmax": "9.06 ng/mL"}
{"note": "Repeated from above:"}
{"Compound": "O=C(CCCCCCC(=O)Nc1ccccc1)NO", "test system": "patients, serum", "conditions": "oral, 1000 mg, cycle 1 day 2, together with: flavopiridol 30+30 mg/m2", "Cmax": "12.7 µM"}
{"Compound": "CO[C@H]1C[C@@H]2CC[C@@H](C)[C@@](O)(O2)C(=O)C(=O)N2CCCC[C@H]2C(=O)O[C@H]([C@H](C)C[C@@H]2CC[C@@H](O)[C@H](OC)C2)CC(=O)[C@H](C)/C=C(\\C)[C@@H](O)[C@@H](OC)C(=O)[C@H](C)C[C@H](C)/C=C/C=C/C=C/1C", "test system": "human, whole blood", "conditions": "oral, 20 mg, together with: grapefruit juice", "Cmax": "105 ng/mL"}
